{"data": "Experimental data from different studies", "B1": "α-TTP V206A; sequence looked up; chain MAEARSQPSAGPQLNALPDHSPLLQPGLAALRRRAREAGVPLAPLPLTDSFLLRFLRARDFDLDLAWRLLKNYYKWRAECPEISADLHPRSIIGLLKAGYHGVLRSRDPTGSKVLIYRIAHWDPKVFTAYDVFRVSLITSELIVQEVETQRNGIKAIFDLEGWQFSHAFQITPSVAKKIAAVLTDSFPLKVRGIHLINEPVIFHAAFSMIKPFLTEKIKERIHMHGNNYKQSLLQHFPDILPLEYGGEEFSMEDICQEWTNFIMKSEDYLSSISESIQ", "note": "Each line is one published result; not all experiments were run side by side. Numbers after ± are the reported error.", "sequence of UniProt Q6IQ23 (whole entry, unmodified, looked up)": "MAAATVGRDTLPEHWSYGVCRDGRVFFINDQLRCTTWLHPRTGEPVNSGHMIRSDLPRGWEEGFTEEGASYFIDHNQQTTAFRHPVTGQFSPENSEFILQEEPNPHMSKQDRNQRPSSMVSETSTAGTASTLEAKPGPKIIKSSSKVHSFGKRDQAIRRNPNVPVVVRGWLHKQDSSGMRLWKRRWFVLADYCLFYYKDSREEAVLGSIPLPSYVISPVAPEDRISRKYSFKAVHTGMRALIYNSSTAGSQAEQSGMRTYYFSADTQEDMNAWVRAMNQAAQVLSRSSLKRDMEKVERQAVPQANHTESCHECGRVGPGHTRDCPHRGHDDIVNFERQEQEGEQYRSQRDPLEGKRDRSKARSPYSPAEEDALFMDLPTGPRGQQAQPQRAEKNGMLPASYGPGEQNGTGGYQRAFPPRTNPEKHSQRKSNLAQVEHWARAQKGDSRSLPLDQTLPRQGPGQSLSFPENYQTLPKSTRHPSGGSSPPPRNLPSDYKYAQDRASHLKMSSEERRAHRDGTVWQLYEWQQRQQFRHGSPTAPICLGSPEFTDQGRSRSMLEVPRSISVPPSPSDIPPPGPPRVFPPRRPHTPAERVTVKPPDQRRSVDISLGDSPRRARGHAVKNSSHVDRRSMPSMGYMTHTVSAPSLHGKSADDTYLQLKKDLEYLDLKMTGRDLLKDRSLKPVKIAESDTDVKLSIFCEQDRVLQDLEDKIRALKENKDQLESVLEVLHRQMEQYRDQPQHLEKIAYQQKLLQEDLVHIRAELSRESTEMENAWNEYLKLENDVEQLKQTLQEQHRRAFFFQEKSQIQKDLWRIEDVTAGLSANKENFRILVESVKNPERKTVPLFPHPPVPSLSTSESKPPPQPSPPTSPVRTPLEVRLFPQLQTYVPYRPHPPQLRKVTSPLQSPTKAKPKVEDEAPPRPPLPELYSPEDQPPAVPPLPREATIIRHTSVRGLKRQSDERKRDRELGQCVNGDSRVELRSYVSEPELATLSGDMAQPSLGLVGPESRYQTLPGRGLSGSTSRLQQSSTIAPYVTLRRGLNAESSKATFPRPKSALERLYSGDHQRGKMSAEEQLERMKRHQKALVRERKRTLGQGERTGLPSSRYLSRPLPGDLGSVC", "sequence of UniProt Q9H4A6 (whole entry, looked up)": "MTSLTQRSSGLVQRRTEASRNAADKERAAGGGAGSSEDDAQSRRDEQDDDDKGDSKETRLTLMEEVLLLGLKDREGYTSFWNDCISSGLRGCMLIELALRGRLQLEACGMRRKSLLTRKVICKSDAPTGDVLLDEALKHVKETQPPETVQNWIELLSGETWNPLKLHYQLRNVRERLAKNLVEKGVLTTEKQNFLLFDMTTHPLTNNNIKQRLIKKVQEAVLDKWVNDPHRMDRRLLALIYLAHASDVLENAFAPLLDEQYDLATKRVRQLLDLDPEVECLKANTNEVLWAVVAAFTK", "sequence of UniProt P20449 (whole entry, looked up)": "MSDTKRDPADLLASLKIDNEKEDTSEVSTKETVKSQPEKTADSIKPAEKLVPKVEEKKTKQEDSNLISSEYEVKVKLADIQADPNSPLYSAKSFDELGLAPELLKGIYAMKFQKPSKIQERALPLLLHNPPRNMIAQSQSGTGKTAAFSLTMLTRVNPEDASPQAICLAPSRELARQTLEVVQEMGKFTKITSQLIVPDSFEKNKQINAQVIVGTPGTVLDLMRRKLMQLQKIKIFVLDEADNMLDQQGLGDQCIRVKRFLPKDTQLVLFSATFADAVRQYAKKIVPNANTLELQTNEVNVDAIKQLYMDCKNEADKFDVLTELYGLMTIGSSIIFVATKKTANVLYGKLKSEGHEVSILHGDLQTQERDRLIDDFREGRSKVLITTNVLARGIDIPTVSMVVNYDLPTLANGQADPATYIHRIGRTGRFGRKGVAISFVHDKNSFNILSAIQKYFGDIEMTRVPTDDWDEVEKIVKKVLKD", "sequence of UniProt Q86SQ9 (whole entry, looked up)": "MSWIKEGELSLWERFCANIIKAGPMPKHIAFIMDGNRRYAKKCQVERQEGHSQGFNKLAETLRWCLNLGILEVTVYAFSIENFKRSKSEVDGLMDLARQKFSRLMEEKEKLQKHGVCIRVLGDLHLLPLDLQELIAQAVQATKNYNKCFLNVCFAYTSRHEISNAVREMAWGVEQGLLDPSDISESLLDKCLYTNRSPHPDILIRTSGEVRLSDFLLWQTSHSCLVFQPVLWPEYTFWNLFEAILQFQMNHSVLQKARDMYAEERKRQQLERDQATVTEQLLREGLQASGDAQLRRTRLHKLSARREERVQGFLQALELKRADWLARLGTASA", "sequence of UniProt P11509 (whole entry, looked up)": "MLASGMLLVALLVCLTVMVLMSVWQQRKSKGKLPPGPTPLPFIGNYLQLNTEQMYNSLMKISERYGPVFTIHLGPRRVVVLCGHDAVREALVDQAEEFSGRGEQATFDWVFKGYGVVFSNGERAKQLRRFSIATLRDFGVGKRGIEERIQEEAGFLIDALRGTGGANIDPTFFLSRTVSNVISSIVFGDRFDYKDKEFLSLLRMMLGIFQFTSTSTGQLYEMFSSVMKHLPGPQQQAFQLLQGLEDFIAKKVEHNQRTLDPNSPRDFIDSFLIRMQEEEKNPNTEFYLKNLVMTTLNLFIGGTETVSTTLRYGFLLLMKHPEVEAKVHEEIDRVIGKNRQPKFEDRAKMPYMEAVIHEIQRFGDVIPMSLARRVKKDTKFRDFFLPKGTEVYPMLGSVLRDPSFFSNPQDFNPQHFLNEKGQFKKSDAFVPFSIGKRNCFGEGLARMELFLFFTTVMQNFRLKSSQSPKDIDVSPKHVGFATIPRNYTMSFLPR", "sequence of UniProt P00520 (whole entry, looked up)": "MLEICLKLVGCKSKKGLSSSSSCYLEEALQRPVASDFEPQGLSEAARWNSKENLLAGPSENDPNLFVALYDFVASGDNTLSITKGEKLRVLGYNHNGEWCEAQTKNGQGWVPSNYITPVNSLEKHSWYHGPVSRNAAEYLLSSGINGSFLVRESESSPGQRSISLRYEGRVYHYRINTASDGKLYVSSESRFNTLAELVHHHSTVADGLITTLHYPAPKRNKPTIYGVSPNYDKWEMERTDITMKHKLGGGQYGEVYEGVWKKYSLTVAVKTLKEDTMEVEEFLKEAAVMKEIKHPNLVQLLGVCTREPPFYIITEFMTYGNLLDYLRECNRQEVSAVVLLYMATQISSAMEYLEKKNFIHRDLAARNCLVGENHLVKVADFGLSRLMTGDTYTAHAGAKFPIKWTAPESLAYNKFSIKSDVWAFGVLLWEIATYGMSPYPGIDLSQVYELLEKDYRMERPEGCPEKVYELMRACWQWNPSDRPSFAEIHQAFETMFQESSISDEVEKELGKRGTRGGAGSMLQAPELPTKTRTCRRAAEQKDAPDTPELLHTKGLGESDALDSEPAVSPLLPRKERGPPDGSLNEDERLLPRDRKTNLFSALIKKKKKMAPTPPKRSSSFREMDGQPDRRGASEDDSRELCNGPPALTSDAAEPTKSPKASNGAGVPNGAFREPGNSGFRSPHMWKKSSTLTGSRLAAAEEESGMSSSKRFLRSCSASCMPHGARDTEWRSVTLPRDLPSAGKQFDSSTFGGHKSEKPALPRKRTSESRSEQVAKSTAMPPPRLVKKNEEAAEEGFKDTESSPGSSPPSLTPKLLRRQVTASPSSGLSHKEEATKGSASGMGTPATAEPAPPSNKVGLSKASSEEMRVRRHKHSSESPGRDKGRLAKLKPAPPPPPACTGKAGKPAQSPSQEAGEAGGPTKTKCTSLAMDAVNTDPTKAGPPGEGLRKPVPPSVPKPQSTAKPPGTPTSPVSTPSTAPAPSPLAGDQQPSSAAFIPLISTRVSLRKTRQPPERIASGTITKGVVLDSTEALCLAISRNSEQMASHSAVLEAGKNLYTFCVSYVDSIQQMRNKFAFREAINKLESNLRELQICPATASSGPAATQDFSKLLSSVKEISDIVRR"}
{"Substance": "Nc1ncnc2c1nc(SCCNc1ccc([N+](=O)[O-])c3nonc13)n2[C@@H]1O[C@@H]2COP(=O)(O)O[C@H]2[C@H]1O", "target": "Cyclic nucleotide-gated potassium channel (Spirochaeta thermophila, UniProt G0GA88)", "test": "binding, fluorescence titration", "system": "amphipol A8-35", "conditions": "pH 7.4, room temperature", "Kd [nM]": 600}
{"Substance": "Cc1cn([C@H]2C=C[C@@H](COP(=O)(O)OP(=O)(O)OP(=O)(O)O)O2)c(=O)[nH]c1=O", "target": "Gag-Pol polyprotein, reverse transcriptase (gag-pol, Human immunodeficiency virus type 1 group M subtype B, UniProt P04585)", "test": "nucleotide binding, pre-steady-state kinetics", "conditions": "together with: 0.5 mM Mg2+", "Kd [nM]": "7600 ± 2200"}
{"Substance": "B1 (α-TTP V206A)", "target": "alpha-tocopherol transfer protein variants", "test": "binding, fluorescence titration", "conditions": "together with: NBD-Toc", "Kd [nM]": 23}
{"Substance": "CC#Cc1ccc(-c2ccccc2)cc1", "target": "Cytochrome P450 2A6 (CYP2A6, Homo sapiens, UniProt P11509)", "test": "binding, absorbance", "conditions": "pH 7.4", "Kd [nM]": 7000}
{"Substance": "CCCCCCCCCCCCCCCC(=O)OC[C@H](COP(=O)(O)O[C@@H]1[C@H](O)[C@H](OP(=O)(O)O)[C@@H](O)[C@H](O)[C@H]1O)OC(=O)CCCCCCCCCCCCCCC", "target": "Golgi phosphoprotein 3 (GOLPH3, Homo sapiens, UniProt Q9H4A6)", "test": "surface plasmon resonance", "system": "DOPC vesicles 3 mol% lipid", "conditions": "pH 7.5, 25 °C", "Kd [nM]": "10200 ± 500"}
{"Substance": "CNc1ccccc1C(=O)OC/C(C)=C/CC/C(C)=C/COP(=O)(O)OP(=O)(O)O", "target": "DHDDS, with NgBR (Homo sapiens, UniProt Q86SQ9)", "test": "binding, tryptophan-MANT FRET", "conditions": "pH 7.5, S1 site, no IPP", "Kd [nM]": "1060 ± 40"}
{"Substance": "Nc1ncnc2c1ncn2[C@@H]1O[C@H](COP(=O)(O)OP(=O)(O)O)[C@@H](O)[C@H]1O", "target": "DBP5 (Saccharomyces cerevisiae, UniProt P20449)", "test": "ADP binding, stopped-flow competition, FRET", "conditions": "pH 7.5, 25 °C, no Mg2+, EDTA, no RNA, 100 mM KCl, together with: mantADP 40 µM", "Kd [nM]": "800000 ± 100000"}
{"Substance": "CCCC(=O)OCC(COP(=O)(O)OC1C(O)C(OP(=O)(O)O)C(O)C(OP(=O)(O)O)C1O)OC(=O)CCC (centres unmarked)", "target": "Tyrosine-protein kinase ABL1, SH2 domain (Abl1, Mus musculus, UniProt P00520)", "test": "HSQC NMR titration", "conditions": "SH2 domain, no KCl", "Kd [nM]": "90000 ± 2000"}
{"Substance": "COc1c(O)cc2cc1C[C@@H](C)C[C@H](OC)[C@H](O)[C@@H](C)/C=C(\\C)[C@H](OC(N)=O)[C@@H](OC)CC/C=C(\\C)C(=O)N2", "target": "Heat shock protein HSP 90-alpha (HSP90AA1, Homo sapiens, UniProt P07900)", "test": "cell-free assay", "Kd [nM]": 26}
{"Substance": "C[C@]12C[C@H](O)[C@H]3[C@@H](CCC4=CC(=O)CC[C@@]43C)[C@@H]1CC[C@@H]2C(=O)CO", "target": "mouse anti-cortisol Fab 17", "test": "native MS titration", "system": "200 mM ammonium acetate", "conditions": "1.5% DMSO, 0.5% methanol, together with: Fab 100 nM", "Kd [nM]": "64 ± 16"}
{"Substance": "CCCCCCCCCCCCCCCC(=O)OC[C@H](COP(=O)(O)O[C@H]1[C@H](O)[C@@H](O)[C@H](OP(=O)(O)O)[C@@H](OP(=O)(O)O)[C@H]1O)OC(=O)CCCCCCCCCCCCCCC", "target": "Pleckstrin homology domain-containing family A member 7, PH domain (Homo sapiens, UniProt Q6IQ23, D175K)", "test": "binding, isothermal titration calorimetry", "conditions": "23 °C, D175K mutant, together with: PI in PC lipid nanodiscs", "Kd [nM]": "500 ± 100"}
{"note": "Excerpt of the above:"}
{"Substance": "CCCCCCCCCCCCCCCC(=O)OC[C@H](COP(=O)(O)O[C@H]1[C@H](O)[C@@H](O)[C@H](OP(=O)(O)O)[C@@H](OP(=O)(O)O)[C@H]1O)OC(=O)CCCCCCCCCCCCCCC", "target": "Pleckstrin homology domain-containing family A member 7, PH domain (Homo sapiens, UniProt Q6IQ23, D175K)", "test": "binding, isothermal titration calorimetry", "conditions": "23 °C, D175K mutant, together with: PI in PC lipid nanodiscs", "Kd [nM]": "500 ± 100"}
